Assay results collected from several papers.
Each line is one published result; not all experiments were run side by side. ± gives the spread as reported.

Molecule	test	test system	conditions	how to read	quantity	value
CC(=O)N[C@@H](Cc1ccccc1)C(=O)N[C@H]1CCCNC(=O)[C@H](CCCNC(=N)N)NC(=O)[C@H](Cc2c[nH]c3ccccc23)NC(=O)[C@@H](CC2CCCCC2)NC(=O)[C@@H]2CCCN2C1=O	–	C57BL/6J mice, plasma	subcutaneous, 1 mg/kg	–	absorption half-life	0.305 h
Cn1c(-c2ccc(C(N)=O)cc2F)nnc1C(C)(C)Oc1c(F)cc(Cl)cc1F	–	young Japanese adults, plasma	oral, 50 mg single dose, day 1, high-dose multiple-dose study	–	half-life range over subjects	8.57 to 15.6 h
CC(C)C[C@H](NC(=O)[C@H](CCCNC(=N)N)NC(=O)[C@H](CC(N)=O)NC(=O)[C@H](CC(=O)O)NC(=O)[C@H](CCCNC(=N)N)NC(=O)CNC(=O)CNC(=O)CNC(=S)Nc1ccc(C[C@H]2CN(CC(=O)O)CCN(CC(=O)O)CCN2CC(=O)O)cc1)C(=O)N[C@@H](CC(N)=O)C(=O)N[C@H](C(=O)NCC(=O)NCC(=O)N[C@H](C(=O)N[C@@H](Cc1ccc(O)cc1)C(=O)N[C@@H](Cc1ccccc1)C(=O)N[C@@H](CC(C)C)C(=O)N[C@H](C(=O)N[C@H](C(=O)N[C@@H](CCCNC(=N)N)C(=O)N[C@@H](CCC(N)=O)C(=O)O)[C@@H](C)O)[C@@H](C)O)[C@@H](C)O)C(C)C [fluorine-18 labelled]	radio-HPLC	mouse (HepG2 tumour-bearing), blood	intravenous, 5.55 MBq, 1 h	–	intact parent radiotracer	93.6 ± 1.38%
CC(C)NC[C@@H](C(=O)N1CCN(c2ncnc3c2[C@H](C)C[C@H]3O)CC1)c1ccc(Cl)cc1	–	human, Mild hepatic function, plasma	oral, 100 mg single dose, NCI classification, geometric mean	–	apparent clearance	191 L/h
acyl ghrelin (human)	–	mouse, Ghsr knockout, thalamus	intravenous, 10 min	–	brain/serum ratio	4.27 µL/g
CCCOc1ccc([C@H]2CNC(=O)N2c2ccc3[nH]cnc3c2)cc1	–	human volunteers fasted, plasma	oral solution, 200 mg single dose, day 1, geometric mean	–	effective half-life	2.43 h
COc1cc(/C=C/C(=O)CC(=O)/C=C/c2ccc(O)c(OC)c2)ccc1O	I-125 label	C57BL/6J mouse, olfactory lobes	intranasal vs intraperitoneal, 10 µg/mouse IN, 100 µg/mouse IP, 24 h	reference: intranasal over intraperitoneal	brain uptake ratio	2.11
CC(C)=CCC/C(C)=C/CC/C(C)=C/COP(=O)(O)OP(=O)(O)OCc1ccccc1[N+](=O)[O-]	–	–	4 °C, irradiation 350 nm	–	uncaging half-life	3.6 min
O=C(c1cccnc1-c1ccncc1)N1CCC(O)(Cc2ccccc2)CC1	–	healthy human, urine	oral, 300 mg once daily, day 14, arithmetic mean	–	renal clearance	3.67 mL/min
C[C@]12CC[C@@H]3c4ccc(O)cc4CC[C@H]3[C@@H]1C[C@@H](O)[C@@H]2O	GC-MS	breast cancer women on NSAI, serum	vaginal, 0.03 mg daily, 2 h, day 28	–	maximum serum concentration	0.0166 ng/mL
CO[C@H]1C[C@@H]2CC[C@@H](C)[C@@](O)(O2)C(=O)C(=O)N2CCCC[C@H]2C(=O)O[C@H]([C@H](C)C[C@@H]2CC[C@@H](O)[C@H](OC)C2)CC(=O)[C@H](C)/C=C(\C)[C@@H](O)[C@@H](OC)C(=O)[C@H](C)C[C@H](C)/C=C/C=C/C=C/1C	–	healthy human adults, blood	oral, 0.5 mg single dose, 24 h, together with: ritonavir-containing 3D regimen	–	C24	5.59 ng/mL
CC1=C2C[C@H]3[C@@H](CC[C@@H]4C[C@H](NS(C)(=O)=O)CC[C@@]43C)[C@@H]2CC[C@@]2(C1)O[C@@H]1C[C@H](C)CN[C@H]1[C@H]2C	–	patients, plasma	oral, 30 mg single, day -7, cycle 1	–	Tmax	6.08 h
Cc1nc2cccc(OCC(C)(C)C(=O)NC(C)C)c2c(N)c1C(=O)O	–	male Sprague-Dawley rat, plasma	oral gavage, 10 mg/kg, day 1	–	Tmax	0.25 h
Oc1ccc(/C=C/c2cc(O)cc(O)c2)cc1	in situ intestinal perfusion	Sprague-Dawley rat, jejunum	25 µg/mL, 120 min, pH 7.4	–	effective permeability	9.4367 ± 0.00021 ×10⁻⁶ cm/s
O=C(/C=C/c1ccc(O)cc1)c1ccc(O)cc1O	–	Sprague Dawley rat, plasma	intravenous, 2 mg/kg single dose	–	distribution half-life	4.2 ± 0.6 min
OCCc1ccc(O)c(O)c1	–	male C57BL/6J mice, brain	oral, 200 mg/kg, 0 to 12 h, low-fat diet	–	AUC(0-t)	0.016 ± 0.001 nmol·min/g
O=C(O)C[C@H](O)C[C@H](O)/C=C/c1c(C2CC2)nc2ccccc2c1-c1ccc(F)cc1	–	healthy Chinese male volunteers, plasma	oral, 2 mg once daily, multiple dose	–	volume of distribution	165 L
TFFYGGSRGRRNNFRTEEY-OH (C-acid)	in situ brain perfusion	peptide, male C57BL/6J mouse, right brain hemisphere	5 min, 1.15 mL/min perfusion, 1 min wash	reference: input	brain uptake	0.053 ± 0.019%
CCCC[C@@H]1NC(=O)[C@@H](NC(=O)[C@H](CCC(=O)O)NC(=O)CNC(=O)CN2CCN(CC(=O)O)CCN(CC(=O)O)CCN(CC(=O)O)CC2)CCCCNC(=O)C[C@@H](C(N)=O)NC(=O)[C@H](C(C)C)NC(=O)[C@@H]2CCCN2C(=O)[C@H](CCCNC(=N)N)NC(=O)CNC(=O)[C@H](Cc2c[nH]c3ccccc23)NC(=O)[C@H](CCCNC(=N)N)NC(=O)[C@@H](Cc2ccccc2)NC(=O)[C@H](Cc2c[nH]cn2)NC(=O)[C@H](CCC(=O)O)NC1=O [indium-111 labelled]	–	C57 mice, B16/F10 lung metastatic melanoma, liver	intravenous, 0.037 MBq, 2 h	–	tissue uptake	0.42 ± 0.07 %ID/g
CC[C@H](C)[C@H](NC(=O)[C@H](CCCNC(=N)N)NC(=O)[C@@H]1CCCN1C(C)=O)C(=O)N[C@@H](CC(=O)O)C(=O)N[C@H](C(=O)N[C@@H](CCCNC(=N)N)C(=O)N[C@H](C(=O)N[C@@H](CC(=O)O)C(=O)N1CCC[C@H]1C(N)=O)[C@@H](C)CC)[C@@H](C)CC	rotational rheometry	1% w/v aqueous solution	shear rate range 1-1000 s^-1	–	viscosity	543 ± 19.5 Pa·s
CC(C)=CCC[C@](C)(O[C@@H]1O[C@H](CO)[C@@H](O)[C@H](O)[C@H]1O)[C@H]1CC[C@]2(C)[C@@H]1[C@H](O)C[C@@H]1[C@@]3(C)CC[C@H](O)C(C)(C)[C@@H]3[C@@H](O[C@@H]3O[C@H](CO)[C@@H](O)[C@H](O)[C@H]3O)C[C@]12C	–	Sprague Dawley rat, male, plasma	oral, 25 mg/kg, pure ginsenoside mixture in water	–	CL/F	742 ± 163 mL/min/kg
CC(C)OC(=O)[C@H](CCC(=O)C=[N+]=[N-])NC(=O)OC(OC(=O)C(C)(C)C)c1ccccc1 (stereo partly drawn)	–	human plasma	10 µM, 60 min, 37 °C	–	remaining compound	88 ± 5%
O=C(Cc1cccc(OC(F)(F)F)c1)Nc1ccc(CCCCc2nnc(NC(=O)Cc3ccccn3)s2)nn1	–	human patients, plasma	oral, 100 mg three times daily fasted, cycle 1 day 15 steady state	–	Cmin	147 ng/mL

Molecule	test	test system	conditions	how to read	quantity	value
CS(=O)(=O)Nc1ccc(C(=O)O[C@@H](Cc2c(Cl)c[n+]([O-])cc2Cl)c2ccc(OC(F)F)c(OCC3CC3)c2)cc1OCC1CC1	–	human, plasma	inhaled, 1200 µg once daily, day 7, single-dose dry powder inhaler	–	tmax	2 h
NCCCn1c2c(c3ccc(N)cc3c1=O)C(=O)c1ccccc1-2	–	Sprague-Dawley rat, female, mammary gland, pooled	oral gavage, 40 mg/kg/day, 3 h after last dose, dosed 3 days	–	tissue concentration	290 ng/g
NC(=O)N1CCC(CC(=O)N2CCC([C@H]3c4ncc(Br)cc4CCc4cc(Cl)cc(Br)c43)CC2)CC1	–	human, plasma	oral, 150 mg twice daily, cycle 1 day 15, together with: gemcitabine 750 mg/m2	–	AUC(tau)	5790 ng·h/mL
CCCC[C@H](NC(C)=O)C(=O)N[C@H]1CCC(=O)NC[C@@H](C(=O)N[C@@H](Cc2c[nH]c3ccccc23)C(N)=O)NC(=O)[C@H](CCCNC(=N)N)NC(=O)[C@@H](Cc2ccccc2)NC(=O)[C@H](Cc2c[nH]cn2)NC1=O	–	CD Sprague-Dawley rat, male, plasma	subcutaneous, 1.0 mg/kg/day, day 28	–	Cmax	594 ng/mL
OC[C@H]1O[C@@H](c2ccc(Cl)c(Cc3ccc(O[C@H]4CCOC4)cc3)c2)[C@H](O)[C@@H](O)[C@@H]1O	HPLC-MS/MS	healthy Chinese volunteers, fasting	oral, 10 mg tablet, 1.5 h	–	plasma concentration	163 ± 35.6 ng/mL
Cc1c(CN2CCN(C(=O)[C@H](C)O)CC2)sc2c(N3CCOCC3)nc(-c3cnc(N)nc3)nc12	–	human patients, plasma	oral	–	V1/F	211 L
COc1ccccc1C(=O)Nc1cccc(NC(=O)c2cccc(C)c2)c1	–	PBS/acetonitrile 1:1, 1% DMSO	10 µM, 48 h, pH 7.4, room temperature	–	compound remaining	100%
CN[C@H](CC(C)C)C(=O)N[C@H]1C(=O)N[C@@H](CC(N)=O)C(=O)N[C@H]2C(=O)N[C@H]3C(=O)N[C@H](C(=O)N[C@H](C(=O)O)c4cc(O)cc(O)c4-c4cc3ccc4O)[C@H](O)c3ccc(c(Cl)c3)Oc3cc2cc(c3O[C@@H]2O[C@H](CO)[C@@H](O)[C@H](O)[C@H]2O[C@H]2C[C@](C)(N)[C@H](O)[C@H](C)O2)Oc2ccc(cc2Cl)[C@H]1O	–	BALB/c mouse, serum	iv, dose not given	–	serum globulin	3 ± 0.2 g/dL
CN[C@H](CC(C)C)C(=O)N[C@H]1C(=O)N[C@@H](CC(N)=O)C(=O)N[C@H]2C(=O)N[C@H]3C(=O)N[C@H](C(=O)N[C@H](C(=O)O)c4cc(O)cc(O)c4-c4cc3ccc4O)[C@H](O)c3ccc(c(Cl)c3)Oc3cc2cc(c3O[C@@H]2O[C@H](CO)[C@@H](O)[C@H](O)[C@H]2O[C@H]2C[C@](C)(N)[C@H](O)[C@H](C)O2)Oc2ccc(cc2Cl)[C@H]1O	microdialysis	pig, Danish Landrace, cortical bone	intravenous, 1000 mg over 100 min, 450 min dosing interval, together with: 1.0 µg/mL MIC	reference: dosing interval	time above MIC	46%
O=C1N=C(N2CCOCC2)CN1c1ccc(Cl)cc1	–	beagle dog, both sexes, plasma	oral, 30 mg/kg, tablets, fed, day 0	–	terminal half-life	1.96 h
COC(=O)c1ccc2c(c1)NC(=O)/C2=C(\Nc1ccc(N(C)C(=O)CN2CCN(C)CC2)cc1)c1ccccc1	–	human, Child-Pugh B hepatic impairment, plasma	oral, 100 mg, single dose, fed	adjusted geometric mean	AUC(0-tz)	652 ng·h/mL
C=CC(N)CCC(=O)O (stereo not drawn)	–	male Sprague-Dawley rat, plasma	oral, 10 mg/kg, formulation 9, together with: low-fat infant formula 1500 mg/kg	–	clearance	10.1 ± 0.167 mL/min/kg
COc1cccc(N2CCN(C3=Nc4c(F)cccc4[C@H](CC(=O)O)N3c3cc(C(F)(F)F)ccc3OC)CC2)c1	UHPLC-MS/MS	healthy women, plasma	intravenous infusion, 480 mg single dose, 60 min infusion, HPβCD formulation	–	volume of distribution	86.9 ± 25.3 L
CC1(C)Oc2cc3oc(=O)ccc3cc2C[C@@H]1O	–	male CD-1 mouse, plasma	oral gavage, 80 mg/kg daily, 4 weeks	–	plasma AST activity	79.5 ± 19.7 U/L
COC(=O)C[C@](O)(CCCC(C)(C)O)C(=O)O[C@@H]1C(OC)=C[C@]23CCCN2CCc2cc4c(cc2[C@H]13)OCO4	–	CD1 mouse, plasma	oral, 1 mg/kg, 24 h	–	concentration	not detected
N#Cc1ccc(C(c2ccc(C#N)cc2)n2cncn2)cc1	–	patients, plasma	oral, 2.5 mg once daily, inavolisib palbociclib letrozole arm	–	steady-state Cmin	334 nM
CNC(=O)c1ccc(-c2cnc3ncc(Cc4ccc5ncccc5c4)n3n2)cc1F	–	human, mild hepatic impairment (Child-Pugh A), plasma	oral, 200 mg single dose	–	half-life (mean)	6.38 h
CC(=O)N[C@H](CSSC[C@H](N)C(=O)O)C(=O)N[C@H](C)C(=O)N[C@H](CCCNC(=N)N)C(=O)N[C@H](CCCNC(=N)N)C(=O)N[C@H](CCCNC(=N)N)C(=O)N[C@H](C)C(=O)N[C@H](CCCNC(=N)N)C(N)=O	in vitro hemodialysis	bovine blood	–	–	hemodialysis rate constant kAB	0.0718 min⁻¹
COc1cc(CNC(=O)CCCC/C=C/C(C)C)ccc1O	–	male Sprague-Dawley rat, myocardial infarction	iv, 0.3 mg/kg, 2 h reperfusion	–	rectal body temperature	37.5 ± 0.1 °C
CCc1ccc(Cc2cc([C@@H]3O[C@H](CO)[C@@H](O)[C@H](O)[C@H]3O)cc3c2CCC3)cc1	–	mouse C57BL/6, male, plasma	oral, 3 mg/kg	–	oral bioavailability	> 89%
CC(C)(C)OC[C@@H]1C(=O)NCCN1C(=O)C[C@H](N)Cc1cc(F)c(F)cc1F	–	human	5 mg once daily, day 10	–	AUC(tau) at steady state	105 ± 20.6 ng·h/mL
COc1cc(Nc2ncc3c(n2)-c2ccc(Cl)cc2C(c2c(F)cccc2OC)=NC3)ccc1C(=O)O	–	human, plasma	oral, 60 mg twice daily, day 7, steady state, ECT	–	t1/2	28 h
